Published values pooled from the literature.
Organism: Enterococcus faecium

SMILES | test | system | conditions | MIC
C#CCOc1ccc(CN[C@@]2(C)C[C@H](O[C@H]3[C@H](Oc4c5cc6cc4Oc4ccc(cc4Cl)[C@@H](O)[C@@H](NC(=O)[C@@H](CC(C)C)NC)C(=O)N[C@@H](CC(N)=O)C(=O)N[C@H]6C(=O)N[C@H]4C(=O)N[C@H](C(=O)N[C@H](C(=O)NCC(N)=O)c6cc(O)cc(O)c6-c6cc4ccc6O)[C@H](O)c4ccc(c(Cl)c4)O5)O[C@H](CO)[C@@H](O)[C@@H]3O)O[C@@H](C)[C@H]2O)cc1OC | broth microdilution | vancomycin-resistant vanB, tryptic soy broth | 20 to 24 h, 37 °C, 0.002% polysorbate 80 | 32 µg/mL
CC[C@H](C)[C@@H]1NC(=O)[C@@H]([C@@H](C)O)NC(=O)CNC(=O)[C@H](CC(=O)O)NC(=O)CNC(=O)[C@H](CC(=O)O)NC(=O)CNC(=O)[C@H]2CCCCN2C(=O)[C@@H](NC(=O)[C@H](CC(=O)O)NC(=O)/C=C/CCCCCCCCCC(C)C)CNC(=O)[C@@H]2CCCN2C1=O | broth microdilution | daptomycin-resistant isolate, Mueller-Hinton broth, Mg2+ 10 mg/L | 16 h, together with: Ca2+ 2.5 mM | 16 µg/mL
CN[C@H](CC(C)C)C(=O)N[C@H]1C(=O)N[C@@H](CC(N)=O)C(=O)N[C@H]2C(=N)N[C@H]3C(=O)N[C@H](C(=O)N[C@H](C(=O)NCCCNC(=N)N)c4cc(O)cc(O)c4-c4cc3ccc4O)[C@H](O)c3ccc(c(Cl)c3)Oc3cc2cc(c3O[C@@H]2O[C@H](CO)[C@@H](O)[C@H](O)[C@H]2O[C@H]2C[C@](C)(NCc3ccc(-c4ccc(Cl)cc4)cc3)[C@H](O)[C@H](C)O2)Oc2ccc(cc2Cl)[C@H]1O |  | BAA-2317 VanA |  | 0.04 µg/mL
CN[C@H](CC(C)C)C(=O)N[C@H]1C(=O)N[C@@H](CC(N)=O)C(=O)N[C@H]2C(=O)N[C@H]3C(=O)N[C@H](C(=O)N[C@H](C(=O)NCc4cn(CCCCC(=O)N[C@H](C(=O)N[C@@H](CCN)C(=O)N[C@H]5CCNC(=O)[C@H]([C@@H](C)O)NC(=O)[C@H](CCN)NC(=O)[C@H](CCN)NC(=O)[C@H](CC(C)C)NC(=O)[C@@H](CC(C)C)NC(=O)[C@H](CCN)NC5=O)[C@@H](C)O)nn4)c4cc(O)cc(O)c4-c4cc3ccc4O)[C@H](O)c3ccc(c(Cl)c3)Oc3cc2cc(c3O[C@@H]2O[C@H](CO)[C@@H](O)[C@H](O)[C@H]2O[C@H]2C[C@](C)(N)[C@H](O)[C@H](C)O2)Oc2ccc(cc2Cl)[C@H]1O | broth microdilution | vancomycin-resistant vanB, tryptic soy broth | 20 to 24 h, 37 °C, 0.002% polysorbate 80 | 8 µg/mL
CCCCCCCCCCCC(=O)C(C)C(=O)N1CCC[C@H]1C(=O)NC(C)(C)C(=O)NC(C)(C)C(=O)NC(C)(C)C(=O)N[C@](C)(CC)C(=O)NCCC(=O)N[C@@H](C)C(=O)N[C@](C)(CC)C(=O)N[C@@H](C)C(=O)N[C@@H](CC(C)C)C(=O)N[C@](C)(CC)C(=O)NCCC(=O)N[C@@H](C)C(=O)N[C@](C)(CC)C(=O)NCCC(=O)N[C@@H](C)C(=O)NC(C)(C)C(=O)NC(C)(C)C(=O)NC(C)(C)C(=O)N[C@@H](C)C(=O)N[C@@H](CC(=O)O)C(=O)O (some centres unmarked) |  | ATCC 19434 |  | > 128 µg/mL
CC[C@H](C)[C@H](N)C(=O)N[C@@H](CCCNC(=N)N)C(=O)N[C@H](C(=O)N[C@@H](Cc1c[nH]c2ccccc12)C(=O)N[C@@H](CCCCN)C(=O)N[C@@H](CCCCN)C(=O)N[C@H](C(=O)N[C@H](C(=O)N[C@@H](CCCNC(=N)N)C(=O)N[C@@H](CCCCN)C(=O)N[C@@H](Cc1c[nH]c2ccccc12)C(=O)N[C@@H](CCCCN)C(=O)N[C@@H](C)C(=O)N[C@H](C(=O)N[C@@H](Cc1c[nH]c2ccccc12)C(=O)N[C@@H](Cc1c[nH]cn1)C(N)=O)[C@@H](C)CC)C(C)C)[C@@H](C)CC)C(C)C | broth dilution | KCTC 13225 |  | 25 µM
CC(C)CCCCCCCCC/C=C/C(=O)N[C@@H](CC(N)=O)C(=O)N[C@H]1CNC(=O)[C@@H]2CCCN2C(=O)[C@H](C(C)C)NC(=O)[C@@H](CN)NC(=O)CNC(=O)[C@H](CC(=O)O)NC(=O)CNC(=O)[C@H](CC(=O)O)NC(=O)[C@H](CC(=O)O)NC(=O)[C@H]2CCCCN2C1=O | broth microdilution | daptomycin-resistant isolate, Mueller-Hinton broth, Mg2+ 10 mg/L | 16 h, together with: Ca2+ 2.5 mM | 2 µg/mL
CN[C@H](CC(C)C)C(=O)N[C@H]1C(=O)N[C@@H](CC(N)=O)C(=O)N[C@H]2C(=O)N[C@H]3C(=O)N[C@H](C(=O)N[C@H](C(=O)O)c4cc(O)cc(O)c4-c4cc3ccc4O)[C@H](O)c3ccc(c(Cl)c3)Oc3cc2cc(c3O[C@@H]2O[C@H](CO)[C@@H](O)[C@H](O)[C@H]2O[C@H]2C[C@](C)(NCc3ccc(OCc4cn(CC(=O)N[C@H](C(=O)N[C@@H](CCN)C(=O)N[C@H]5CCNC(=O)[C@H]([C@@H](C)O)NC(=O)[C@H](CCN)NC(=O)[C@H](CCN)NC(=O)[C@H](CC(C)C)NC(=O)[C@@H](CC(C)C)NC(=O)[C@H](CCN)NC5=O)[C@@H](C)O)nn4)c(OC)c3)[C@H](O)[C@H](C)O2)Oc2ccc(cc2Cl)[C@H]1O | broth microdilution | vancomycin-resistant vanB, tryptic soy broth | 20 to 24 h, 37 °C, 0.002% polysorbate 80 | 2 µg/mL
O=C(c1ccccc1O)c1[nH]c(Cl)c(Cl)c1-n1c(C(=O)c2ccccc2O)cc(Cl)c1Cl |  | ATCC 6569 |  | 8 µM
CC[C@H](C)[C@H](N)C(=O)N[C@@H](C)C(=O)N[C@@H](CC(C)C)C(=O)N[C@H](CCC(=O)O)C(=O)N[C@H](C(=O)N[C@H]1CCCCNC(=O)[C@H](CC(N)=O)NC(=O)[C@@H](CC(=O)O)NC(=O)[C@H](Cc2c[nH]cn2)NC(=O)[C@@H](Cc2ccccc2)NC(=O)[C@H]([C@@H](C)CC)NC(=O)[C@@H](CCCN)NC1=O)[C@@H](C)CC |  | VanB vancomycin-resistant | 18 h, 37 °C, 0.3 mM ZnSO4 LB | > 64 µg/mL
CC(=CC(C)CCCCC(=O)O)C1OC2C=CC1OC(=O)C=CC=CC=CC1OC3CC1OC(C=CCC1OC(CC(O)C1C)C(O)C(O)C=CCCC=CC2)C3C (centres unmarked) | microbial growth | DSM20477 |  | 0.15 µM
CC(C)CCCCCCCCC/C=C/C(=O)N[C@@H](CC(=O)O)C(=O)N[C@H]1CNC(=O)[C@@H]2CCCN2C(=O)[C@H](C(C)C)NC(=O)[C@@H](CN)NC(=O)CNC(=O)[C@H](CC(=O)O)NC(=O)CNC(=O)[C@H](CC(=O)O)NC(=O)[C@H](CC(=O)O)NC(=O)[C@H]2CCCCN2C1=O | broth microdilution | daptomycin-resistant isolate, Mueller-Hinton broth, Mg2+ 10 mg/L | 16 h, together with: Ca2+ 2.5 mM | 4 µg/mL
CC[C@H](C)[C@H](NC(=O)[C@@H](CCC(=O)O)NC(=O)[C@H](CC(C)C)NC(=O)c1cccc(-c2ccccn2)n1)C(=O)N[C@H]1CCCCNC(=O)[C@H](CC(N)=O)NC(=O)[C@@H](CC(=O)O)NC(=O)[C@H](Cc2c[nH]cn2)NC(=O)[C@@H](Cc2ccccc2)NC(=O)[C@H]([C@@H](C)CC)NC(=O)[C@@H](CCCN)NC1=O |  | VanB vancomycin-resistant | 18 h, 37 °C, 0.3 mM ZnSO4 LB | > 64 µg/mL
C#CCOc1ccc(CN[C@@]2(C)C[C@H](O[C@H]3[C@H](Oc4c5cc6cc4Oc4ccc(cc4Cl)[C@@H](O)[C@@H](NC(=O)[C@@H](CC(C)C)NC)C(=O)N[C@@H](CC(N)=O)C(=O)N[C@H]6C(=O)N[C@H]4C(=O)N[C@H](C(=O)N[C@H](C(=O)N[C@@H](CCCNC(=N)N)C(N)=O)c6cc(O)cc(O)c6-c6cc4ccc6O)[C@H](O)c4ccc(c(Cl)c4)O5)O[C@H](CO)[C@@H](O)[C@@H]3O)O[C@@H](C)[C@H]2O)cc1OC | broth microdilution | vancomycin-resistant vanB, tryptic soy broth | 20 to 24 h, 37 °C, 0.002% polysorbate 80 | 4 µg/mL
CC[C@H](C)[C@H](NC(=O)[C@H](Cc1c[nH]c2ccccc12)NC(=O)[C@H](Cc1ccc(O)cc1)NC(=O)[C@H](CCCCN)NC(=O)[C@H](CC(C)C)NC(=O)[C@@H](N)CO)C(=O)N[C@@H](CCCNC(=N)N)C(=O)N[C@@H](Cc1ccc(O)cc1)C(=O)N[C@@H](CCCCN)C(=O)N[C@@H](CCCNC(=N)N)C(=O)N[C@@H](CCC(N)=O)C(=O)NCC(=O)N[C@@H](C)C(=O)N[C@@H](C)C(=O)N[C@@H](CCCNC(=N)N)C(=O)N[C@@H](Cc1ccccc1)C(N)=O | broth dilution | KCTC 13225 |  | 25 µM
CN[C@H](CC(C)C)C(=O)N[C@H]1C(=O)N[C@@H](CC(N)=O)C(=O)N[C@H]2C(=O)N[C@H]3C(=O)N[C@H](C(=O)N[C@H](C(=O)NCc4cn(CC(=O)N[C@H](C(=O)N[C@@H](CCN)C(=O)N[C@H]5CCNC(=O)[C@H]([C@@H](C)O)NC(=O)[C@H](CCN)NC(=O)[C@H](CCN)NC(=O)[C@H](CC(C)C)NC(=O)[C@@H](CC(C)C)NC(=O)[C@H](CCN)NC5=O)[C@@H](C)O)nn4)c4cc(O)cc(O)c4-c4cc3ccc4O)[C@H](O)c3ccc(c(Cl)c3)Oc3cc2cc(c3O[C@@H]2O[C@H](CO)[C@@H](O)[C@H](O)[C@H]2O[C@H]2C[C@](C)(N)[C@H](O)[C@H](C)O2)Oc2ccc(cc2Cl)[C@H]1O |  | VRE vanB |  | 0.8 µM
c1ccc2c(c1)nc(CNCC13CC4CC(CC(C4)C1)C3)n2CC1CCCCC1 |  | ATCC 19434 |  | 16 µg/mL

Repeated from above:
SMILES | test | system | conditions | MIC
CC[C@H](C)[C@H](NC(=O)[C@@H](CCC(=O)O)NC(=O)[C@H](CC(C)C)NC(=O)c1cccc(-c2ccccn2)n1)C(=O)N[C@H]1CCCCNC(=O)[C@H](CC(N)=O)NC(=O)[C@@H](CC(=O)O)NC(=O)[C@H](Cc2c[nH]cn2)NC(=O)[C@@H](Cc2ccccc2)NC(=O)[C@H]([C@@H](C)CC)NC(=O)[C@@H](CCCN)NC1=O |  | VanB vancomycin-resistant | 18 h, 37 °C, 0.3 mM ZnSO4 LB | > 64 µg/mL
